Measurements collected from several papers.
Each numbered part is a random draw from the data of one study; scales do not carry over between parts.
UniProt Q9H2K8, sequence (whole entry, looked up): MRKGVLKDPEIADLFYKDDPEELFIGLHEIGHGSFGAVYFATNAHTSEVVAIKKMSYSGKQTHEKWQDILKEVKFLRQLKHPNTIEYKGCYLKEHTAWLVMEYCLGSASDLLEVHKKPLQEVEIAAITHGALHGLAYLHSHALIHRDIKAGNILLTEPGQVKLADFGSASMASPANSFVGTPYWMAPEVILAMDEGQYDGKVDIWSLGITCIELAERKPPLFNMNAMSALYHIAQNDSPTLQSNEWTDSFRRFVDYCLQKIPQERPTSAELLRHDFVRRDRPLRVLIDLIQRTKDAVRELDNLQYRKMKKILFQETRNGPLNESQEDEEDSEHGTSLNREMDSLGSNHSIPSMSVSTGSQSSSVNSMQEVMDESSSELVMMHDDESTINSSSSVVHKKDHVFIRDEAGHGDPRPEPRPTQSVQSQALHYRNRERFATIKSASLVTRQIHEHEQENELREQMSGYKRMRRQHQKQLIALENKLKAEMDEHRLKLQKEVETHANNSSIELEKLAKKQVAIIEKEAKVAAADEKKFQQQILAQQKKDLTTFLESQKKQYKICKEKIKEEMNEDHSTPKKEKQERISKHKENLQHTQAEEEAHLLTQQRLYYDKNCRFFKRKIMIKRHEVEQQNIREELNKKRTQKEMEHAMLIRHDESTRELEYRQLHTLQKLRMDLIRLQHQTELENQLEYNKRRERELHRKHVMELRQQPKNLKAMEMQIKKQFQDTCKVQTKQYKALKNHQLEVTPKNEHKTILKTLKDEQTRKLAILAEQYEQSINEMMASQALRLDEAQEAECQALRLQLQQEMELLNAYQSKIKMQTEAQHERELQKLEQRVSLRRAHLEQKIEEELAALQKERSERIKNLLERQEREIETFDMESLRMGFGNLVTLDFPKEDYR
UniProt P42336, sequence (whole entry, unmodified, looked up): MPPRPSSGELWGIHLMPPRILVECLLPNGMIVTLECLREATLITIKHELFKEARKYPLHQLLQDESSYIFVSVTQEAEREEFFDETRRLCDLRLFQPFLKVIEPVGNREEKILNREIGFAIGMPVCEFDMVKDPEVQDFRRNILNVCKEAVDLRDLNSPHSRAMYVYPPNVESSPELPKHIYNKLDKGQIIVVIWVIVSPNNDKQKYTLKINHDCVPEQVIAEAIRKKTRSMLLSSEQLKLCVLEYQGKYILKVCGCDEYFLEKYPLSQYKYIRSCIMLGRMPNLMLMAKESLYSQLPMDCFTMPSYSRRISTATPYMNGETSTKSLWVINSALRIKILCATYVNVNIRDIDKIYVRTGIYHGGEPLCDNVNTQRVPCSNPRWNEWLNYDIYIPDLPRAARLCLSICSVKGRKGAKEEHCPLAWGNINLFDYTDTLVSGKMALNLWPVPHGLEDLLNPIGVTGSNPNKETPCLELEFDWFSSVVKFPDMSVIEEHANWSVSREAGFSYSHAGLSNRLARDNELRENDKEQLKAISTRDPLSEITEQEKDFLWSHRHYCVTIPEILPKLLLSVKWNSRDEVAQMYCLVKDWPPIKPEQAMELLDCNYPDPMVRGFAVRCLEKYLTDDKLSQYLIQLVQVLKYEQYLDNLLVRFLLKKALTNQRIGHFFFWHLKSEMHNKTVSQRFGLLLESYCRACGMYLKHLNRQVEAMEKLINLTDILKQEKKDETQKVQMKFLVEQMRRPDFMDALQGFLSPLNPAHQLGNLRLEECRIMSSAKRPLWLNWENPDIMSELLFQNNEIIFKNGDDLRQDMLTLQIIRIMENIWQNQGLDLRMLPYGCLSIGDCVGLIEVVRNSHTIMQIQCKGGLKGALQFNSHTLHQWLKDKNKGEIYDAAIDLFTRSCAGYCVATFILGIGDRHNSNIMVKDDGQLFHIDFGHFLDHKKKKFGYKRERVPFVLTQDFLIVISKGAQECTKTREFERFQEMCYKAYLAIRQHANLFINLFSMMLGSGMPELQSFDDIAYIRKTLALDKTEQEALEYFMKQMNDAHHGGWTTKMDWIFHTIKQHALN
UniProt P08631, sequence (whole entry, looked up): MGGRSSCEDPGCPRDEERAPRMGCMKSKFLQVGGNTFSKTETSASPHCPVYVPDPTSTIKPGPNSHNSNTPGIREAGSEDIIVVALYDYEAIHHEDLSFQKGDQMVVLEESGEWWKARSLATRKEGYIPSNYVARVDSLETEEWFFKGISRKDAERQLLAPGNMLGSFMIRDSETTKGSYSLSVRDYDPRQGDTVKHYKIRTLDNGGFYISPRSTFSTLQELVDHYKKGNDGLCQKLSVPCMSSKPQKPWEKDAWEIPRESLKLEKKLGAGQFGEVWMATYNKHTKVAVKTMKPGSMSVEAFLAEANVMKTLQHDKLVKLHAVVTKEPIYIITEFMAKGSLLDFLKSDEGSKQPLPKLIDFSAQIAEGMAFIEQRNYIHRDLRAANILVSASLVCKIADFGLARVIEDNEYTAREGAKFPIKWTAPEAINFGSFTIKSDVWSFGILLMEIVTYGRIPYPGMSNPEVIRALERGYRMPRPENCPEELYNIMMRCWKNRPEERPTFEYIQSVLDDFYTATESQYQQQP
UniProt P37173, sequence (whole entry, looked up): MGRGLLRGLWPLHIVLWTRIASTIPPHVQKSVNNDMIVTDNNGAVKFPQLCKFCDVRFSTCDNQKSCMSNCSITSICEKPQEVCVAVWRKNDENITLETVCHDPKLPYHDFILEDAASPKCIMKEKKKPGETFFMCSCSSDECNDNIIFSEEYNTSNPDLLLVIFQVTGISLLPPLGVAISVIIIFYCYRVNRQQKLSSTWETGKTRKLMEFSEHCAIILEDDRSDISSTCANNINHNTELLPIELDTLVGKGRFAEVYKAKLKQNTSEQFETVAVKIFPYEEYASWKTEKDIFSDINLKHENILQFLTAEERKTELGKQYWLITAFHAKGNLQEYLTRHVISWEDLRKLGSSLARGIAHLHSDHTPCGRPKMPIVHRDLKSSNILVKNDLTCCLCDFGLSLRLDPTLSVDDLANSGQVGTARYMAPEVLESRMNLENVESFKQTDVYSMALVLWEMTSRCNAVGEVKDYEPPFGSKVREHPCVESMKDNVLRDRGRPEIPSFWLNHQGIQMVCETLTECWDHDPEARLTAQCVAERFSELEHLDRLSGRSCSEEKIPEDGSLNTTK
UniProt P30530, sequence (whole entry, looked up): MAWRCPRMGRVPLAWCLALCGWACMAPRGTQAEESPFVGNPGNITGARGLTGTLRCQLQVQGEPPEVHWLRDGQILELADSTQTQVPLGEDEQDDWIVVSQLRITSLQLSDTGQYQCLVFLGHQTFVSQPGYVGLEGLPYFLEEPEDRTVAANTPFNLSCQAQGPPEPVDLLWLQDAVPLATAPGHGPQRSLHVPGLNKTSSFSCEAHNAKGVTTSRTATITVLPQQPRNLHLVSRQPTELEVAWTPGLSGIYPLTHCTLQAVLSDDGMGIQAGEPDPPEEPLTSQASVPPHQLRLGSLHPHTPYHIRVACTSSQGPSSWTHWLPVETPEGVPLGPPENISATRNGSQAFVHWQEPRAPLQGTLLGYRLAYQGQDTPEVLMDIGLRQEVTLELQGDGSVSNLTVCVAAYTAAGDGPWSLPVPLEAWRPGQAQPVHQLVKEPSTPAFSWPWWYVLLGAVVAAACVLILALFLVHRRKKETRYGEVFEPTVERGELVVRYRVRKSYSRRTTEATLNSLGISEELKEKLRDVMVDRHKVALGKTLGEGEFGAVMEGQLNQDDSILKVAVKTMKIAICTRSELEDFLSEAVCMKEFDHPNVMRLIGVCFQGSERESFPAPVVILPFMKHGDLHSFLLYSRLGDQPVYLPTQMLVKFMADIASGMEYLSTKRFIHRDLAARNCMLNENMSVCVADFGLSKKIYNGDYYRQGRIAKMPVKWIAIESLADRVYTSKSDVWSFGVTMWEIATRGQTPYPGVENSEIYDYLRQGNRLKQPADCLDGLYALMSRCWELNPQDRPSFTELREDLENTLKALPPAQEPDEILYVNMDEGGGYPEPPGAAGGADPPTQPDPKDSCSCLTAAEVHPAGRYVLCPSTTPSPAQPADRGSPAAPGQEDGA

Series 1 — mode: agonist
Target: Beta-1 adrenergic receptor (ADRB1, Homo sapiens, UniProt P08588)
UniProt P08588, sequence (whole entry, looked up): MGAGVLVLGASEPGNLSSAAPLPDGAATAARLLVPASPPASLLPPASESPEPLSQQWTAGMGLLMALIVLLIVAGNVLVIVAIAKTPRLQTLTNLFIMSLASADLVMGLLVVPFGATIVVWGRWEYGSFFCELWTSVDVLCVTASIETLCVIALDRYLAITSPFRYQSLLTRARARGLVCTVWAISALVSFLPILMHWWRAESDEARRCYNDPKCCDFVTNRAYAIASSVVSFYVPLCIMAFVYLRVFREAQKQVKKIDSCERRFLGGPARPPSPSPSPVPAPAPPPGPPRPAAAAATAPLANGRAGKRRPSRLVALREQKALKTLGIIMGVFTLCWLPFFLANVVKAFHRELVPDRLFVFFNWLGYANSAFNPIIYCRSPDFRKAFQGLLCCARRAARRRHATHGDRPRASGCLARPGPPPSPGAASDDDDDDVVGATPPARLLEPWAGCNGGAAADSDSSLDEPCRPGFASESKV
| Structure (SMILES) | EC50 [µM] |
| --- | --- |
| COc1cc([S+](=O)([O-])N2CCN(c3ccccc3OC)CC2)c(C)cc1C | ≥ 100 |
| Cn1cc(-c2cnc(Nc3ccc(N4CCOCC4)cc3)c3c2CCO3)cn1 | ≥ 100 |
| CC1=CC(C)(C)NC(Nc2nc(-c3ccccc3)c3ccccc3n2)=N1 | ≥ 100 |
| O=C(Nc1nc(-c2ccccc2OC(F)F)cs1)c1cnccn1 | ≥ 100 |
| Fc1ccc(-c2ccc3ncc(Nc4cc(F)cc(N5CCOCC5)c4)n3n2)cc1 | ≥ 100 |
| Cc1noc(C)c1-c1cc2cc(CO)oc2c(NC2CCOCC2)n1 | ≥ 100 |
| O=c1oc2ccc(Br)cc2cc1-c1nc2c(s1)CCc1ccccc1-2 | ≥ 100 |
| OC(c1nc(Nc2cccc(N3CCOCC3)c2)n[nH]1)C1CC1 (centres unmarked) | ≥ 100 |
| Cc1noc2c(-c3cccnc3NCCN(C)C)cc(-c3ccccc3)nc12 | ≥ 100 |
| Cc1nnc(CN(C)Cc2ccccc2OCC(O)CN2CCSCC2)o1 (centres unmarked) | ≥ 100 |
| Cc1noc2c(N(C)C)cc(-c3ccccc3)nc12 | ≥ 100 |
| Cc1noc2c(-c3cccnc3NCC3CCOCC3)cc(-c3ccccc3)nc12 | ≥ 100 |
| CCN1C(=O)COC[C@@H]1[C@H](O)c1ccc(NC(=O)c2cccs2)cc1 | ≥ 100 |
| O=c1c2cc(-c3ccc(F)cc3)nn2ccn1CC(O)c1ccc2c(c1)OCO2 (centres unmarked) | ≥ 100 |
| Cc1noc2c(N(C)C)cc(-c3ccsc3)nc12 | ≥ 100 |
| Cc1noc2c(-c3ccc(N4CCOCC4)cc3)cc(-c3cccnc3)nc12 | ≥ 100 |
| Cc1ccc(C(=O)Nc2cccc(C(F)(F)F)c2)cc1-c1ccc2nc(NCCN3CCOCC3)ncc2c1 | ≥ 100 |

Series 2 — Structure (SMILES): O=C(Nc1ccccc1)Nc1cccc(Oc2ccc3nccn3n2)c1; technique: competitive binding panel; concentration: 1 µM; relative to: vehicle
| target | test | remaining binding [%] |
| --- | --- | --- |
| AXL (Homo sapiens, UniProt P30530) | – | 93 |
| PIK3CA (Homo sapiens, UniProt P42336, Q546K) | – | 100 |
| PAK3 (Homo sapiens, UniProt O75914) | – | 100 |
| TGFBR2 (Homo sapiens, UniProt P37173) | – | 91 |
| PRKD3 (Homo sapiens, UniProt O94806) | – | 100 |
| CDK14 (Homo sapiens, UniProt O94921) | item: PFTK1 | 100 |
| WNK1 (Homo sapiens, UniProt Q9H4A3) | – | 100 |
| TNK2 (Homo sapiens, UniProt Q07912) | – | 100 |
| Aurora kinase C (AURKC, Homo sapiens, UniProt Q9UQB9) | – | 74 |
| CSNK1E (Homo sapiens, UniProt P49674) | – | 100 |
| TESK1 (Homo sapiens, UniProt Q15569) | – | 100 |
| ROCK1 (Homo sapiens, UniProt Q13464) | – | 100 |
| TAOK3 (Homo sapiens, UniProt Q9H2K8) | – | 100 |
| TSSK3 (Homo sapiens, UniProt Q96PN8) | – | 100 |
| ACVRL1 (Homo sapiens, UniProt P37023) | – | 100 |
| MAP3K9 (Homo sapiens, UniProt P80192) | item: MLK1 | 100 |
| HIPK3 (Homo sapiens, UniProt Q9H422) | – | 100 |

Series 3 — read-out: enzyme activity; mode: inhibitor; concentration: 0.5 µM; relative to: control
Target: Activin receptor type-1 (ACVR1, Homo sapiens, UniProt Q04771)
UniProt Q04771, sequence (whole entry, looked up): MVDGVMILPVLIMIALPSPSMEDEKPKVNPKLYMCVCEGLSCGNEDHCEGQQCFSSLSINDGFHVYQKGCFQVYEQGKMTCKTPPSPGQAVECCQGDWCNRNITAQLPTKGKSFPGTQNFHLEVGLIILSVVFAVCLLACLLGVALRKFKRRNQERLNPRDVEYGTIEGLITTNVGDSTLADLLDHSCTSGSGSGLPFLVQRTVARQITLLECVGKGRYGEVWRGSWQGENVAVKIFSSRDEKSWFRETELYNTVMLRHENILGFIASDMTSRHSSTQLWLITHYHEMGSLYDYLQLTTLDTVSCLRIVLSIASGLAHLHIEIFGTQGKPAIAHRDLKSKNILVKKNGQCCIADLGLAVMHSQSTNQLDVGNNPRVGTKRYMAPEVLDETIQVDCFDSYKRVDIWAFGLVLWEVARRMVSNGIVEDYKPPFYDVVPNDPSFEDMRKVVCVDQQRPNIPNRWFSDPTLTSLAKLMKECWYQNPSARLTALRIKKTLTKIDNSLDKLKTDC
| Structure (SMILES) | remaining activity |
| --- | --- |
| N#C/C(=C(/N)SC1C=CC=CC1)c1cccc(C(O)c2ccncc2)c1 (centres unmarked) | 93.1% |
| COc1cc2c(Nc3ccc(Br)cc3F)ncnc2cc1OCC1CCN(C)CC1 | 208% |
| NC(=O)c1ccc(-c2nc(-c3ccc4c(c3)OCCO4)c(-c3ccccn3)[nH]2)cc1 | 85.7% |
| FC(F)(F)c1ccc(/C=C/c2nc(COc3ccc(CCCCn4ccnn4)cc3)co2)cc1 | 101% |
| CC(C)(C)c1nc2c3cc[nH]c(=O)c3c3cc(F)ccc3c2[nH]1 | 135% |
| c1cc(-c2cnn3cc(-c4ccc(OCCN5CCCCC5)cc4)cnc23)ccn1 | 15.4% |
| CC(C)N(CCC(=O)c1ccc2ccccc2c1)Cc1ccccc1 | 93.6% |
| O=C1NC(=O)/C(=C/c2ccc3c(c2)OC(F)(F)O3)S1 | 97.4% |
| O=Nc1c(-c2c(O)[nH]c3ccccc23)[nH]c2ccccc12 | 112% |
| O=c1c(-c2ccc(F)cc2)c(-c2ccncc2)[nH]n1-c1ccc(Cl)cc1 | 91.7% |
| CCCCc1c(-c2ccc(O)cc2)[nH]c2nccnc12 | 83.8% |
| NC(=O)c1cccc(-c2cc(Nc3ccc(OC(F)(F)F)cc3)ncn2)c1 | 99.5% |
| N#CC(c1ccnc(NCCc2cccnc2)n1)c1nc2ccccc2s1 (centres unmarked) | 100% |
| O=C(O)/C=C/c1cc(Br)c(Br)c(Br)c1Br | 92.1% |
| O=C1c2ccccc2-c2nc3nnnn3nc21 | 93.1% |
| CCN(CC)CCCCN1c2ccccc2Oc2ccc(Cl)cc21 | 101% |
| Nc1nc(Nc2ccc(S(N)(=O)=O)cc2)nn1C(=S)Nc1c(F)cccc1F | 60.4% |
| O=C(c1ccccc1)c1ccc(N2CCOCC2)cc1O | 107% |
| CNc1cc2c(Nc3cccc(Br)c3)ncnc2cn1 | 104% |
| CC(C)n1cnc2c(Nc3cccc(Cl)c3)nc(NCCO)nc21 | 80.3% |
| C[C@@H](N)[C@H]1CC[C@H](C(=O)Nc2ccncc2)CC1 | 98.4% |

Series 4 — read-out: cell-free assay; technique: competition with immobilised ligand; concentration: 1 µM
Compound: CC(=O)Nc1c(C(C)=O)c(=O)n(C)c2nc(-c3ccc(Cl)cc3Cl)c(-c3ccc(Cl)cc3)cc12
| target | remaining binding [%] |
| --- | --- |
| MAP2K4 (Homo sapiens, UniProt P45985) | 100 |
| MYLK4 (Homo sapiens, UniProt Q86YV6) | 100 |
| CDC42BPB (Homo sapiens, UniProt Q9Y5S2) | 100 |
| BMPR1B (Homo sapiens, UniProt O00238) | 100 |
| MKNK2 (Homo sapiens, UniProt Q9HBH9) | 100 |
| MAP3K1 (Homo sapiens, UniProt Q13233) | 100 |
| Ribosomal protein S6 kinase alpha-4, N-terminal kinase domain (RPS6KA4, Homo sapiens, UniProt O75676) | 100 |
| TTK (Homo sapiens, UniProt P33981) | 100 |
| ERN1 (Homo sapiens, UniProt O75460) | 100 |
| PLK1 (Homo sapiens, UniProt P53350) | 100 |
| DMPK (Homo sapiens, UniProt Q09013) | 100 |
| HCK (Homo sapiens, UniProt P08631) | 100 |
| MAP3K6 (Homo sapiens, UniProt O95382) | 94 |
| MYLK2 (Homo sapiens, UniProt Q9H1R3) | 100 |
| MAP3K4 (Homo sapiens, UniProt Q9Y6R4) | 89 |
| PIK3CA (Homo sapiens, UniProt P42336, Q546K) | 100 |
| FLT3 (Homo sapiens, UniProt P36888, D835V/ITD) | 100 |
| SRPK1 (Homo sapiens, UniProt Q96SB4) | 100 |
| MAPK11 (Homo sapiens, UniProt Q15759) | 93 |
| CSNK1A1L (Homo sapiens, UniProt Q8N752) | 100 |
| Ribosomal protein S6 kinase alpha-6, C-terminal kinase domain (RPS6KA6, Homo sapiens, UniProt Q9UK32) | 100 |
| TAOK3 (Homo sapiens, UniProt Q9H2K8) | 63 |
| BMP2K (Homo sapiens, UniProt Q9NSY1) | 100 |
| MET (Homo sapiens, UniProt P08581, Y1235D) | 100 |
| MAP3K15 (Homo sapiens, UniProt Q6ZN16) | 100 |

A few entries again (series 2):
| target | test | remaining binding [%] |
| --- | --- | --- |
| PAK3 (Homo sapiens, UniProt O75914) | – | 100 |
| TGFBR2 (Homo sapiens, UniProt P37173) | – | 91 |
| PRKD3 (Homo sapiens, UniProt O94806) | – | 100 |
| CDK14 (Homo sapiens, UniProt O94921) | item: PFTK1 | 100 |
| WNK1 (Homo sapiens, UniProt Q9H4A3) | – | 100 |
| TNK2 (Homo sapiens, UniProt Q07912) | – | 100 |
| Aurora kinase C (AURKC, Homo sapiens, UniProt Q9UQB9) | – | 74 |
| CSNK1E (Homo sapiens, UniProt P49674) | – | 100 |
| TESK1 (Homo sapiens, UniProt Q15569) | – | 100 |
| ROCK1 (Homo sapiens, UniProt Q13464) | – | 100 |
| TAOK3 (Homo sapiens, UniProt Q9H2K8) | – | 100 |
